Results collected from several papers.
Protocols differ between the studies behind these lines. Numbers after ± are the reported error.

| Compound | test | test system | setting | logD |
| --- | --- | --- | --- | --- |
| O=C(CN1C(=O)C2(CCN(C(=O)c3ccc4[nH]ncc4n3)CC2)c2c(Br)cccc21)NCC(F)(F)F | – | – | pH 7.4 | 2.72 |
| COc1ccc2c3c1O[C@H]1C(=O)CC[C@@]4(O)[C@@H](C2)N(CCc2ccccc2)CC[C@]314 | – | octanol/phosphate buffer | 1 h, pH 5.74, ionic strength 0.15 M | 1.24 |
| CC[C@H](C)[C@@H]1NC(=O)[C@H](CCSC)NC(=O)[C@H](Cc2c[nH]c3ccccc23)NC(=O)[C@H](CC(N)=O)NC(=O)[C@@H](NC(=O)CCOCCOCCOCCNC(=O)CN2CCN(CC(=O)O)CCN(CC(=O)O)CC2)CSSC[C@@H](C(=O)O)NC(=O)[C@H](CCC(=O)O)NC(=O)[C@H](CCCCN)NC(=O)[C@H](CC(N)=O)NC1=O [gallium-68 labelled] | shake-flask | 1-octanol/PBS | pH 7.4 | -1.36 ± 0.52 |
| COc1ccccc1C(NS(=O)(=O)c1cc2ccc(O)nc2cc1Cl)C(=O)N(CC(=O)NCCn1cc(COCCOCCNc2cccc3c2C(=O)N(C2CCC(=O)NC2=O)C3=O)nn1)Cc1cccs1 (mixture of isomers) | fast-gradient HPLC | – | pH 7.4 | 2.4 |
| Cc1n[nH]c(C)c1CCCOc1cc(OCCCCCCNCCOCCOCCn2cc(CNc3ccc(C(=O)O)cc3)nn2)cc(C(=O)O)c1 | – | – | pH 7.4 | -1.6 |
| CN[C@@H](C)C(=O)N[C@H](C(=O)N1C[C@@H](NC(=O)COCCOCCOCc2cn(CCNC(=O)CN(Cc3cccs3)C(=O)[C@H](NS(=O)(=O)c3cc4ccc(O)nc4cc3Cl)c3ccccc3OC)nn2)C[C@H]1C(=O)N[C@@H]1CCCc2ccccc21)C1CCCCC1 | fast-gradient HPLC | – | pH 7.4 | 2.5 |
| COc1ccc2c3c1O[C@H]1[C@H](O)CC[C@@]4(O)[C@@H](C2)N(C)CC[C@]314 | – | octanol/water, borax buffer | 1 h, pH 9.22, ionic strength 0 M | 0.69 |
| COc1ccccc1C(NS(=O)(=O)c1cc2ccc(O)nc2cc1Cl)C(=O)N(CC(=O)NCCn1cc(COCCCCCNc2cccc3c2C(=O)N(C2CCC(=O)NC2=O)C3=O)nn1)Cc1cccs1 (mixture of isomers) | fast-gradient HPLC | – | pH 7.4 | 2.8 |
| COc1ccc2c3c1O[C@H]1C(=O)CC[C@@]4(O)[C@@H](C2)N(CC2CCC2)CC[C@]314 | – | octanol/phosphate buffer | 1 h, pH 7.38, ionic strength 0.15 M | 1.66 |
| COc1ccccc1[C@@H](NS(=O)(=O)c1cc2ccc(O)nc2cc1Cl)C(=O)N(CC(=O)NCCn1cc(COCCCCC(=O)N[C@H](C(=O)N2C[C@H](O)C[C@H]2C(=O)NCc2ccc(-c3scnc3C)cc2)C(C)(C)C)nn1)Cc1cccs1 | fast-gradient HPLC | – | pH 7.4 | 2.4 |
| COc1ccc2c3c1O[C@H]1[C@@H](O)CC[C@H]4[C@@H](C2)N(CCc2ccccc2)CC[C@@]341 | – | octanol/buffer | 1 h, pH 7.4 | 2.19 |
| O=C(CN1C(=O)C2(CCN(C(=O)c3cnc4[nH]ncc4c3)CC2)c2c(Br)cccc21)NCC(F)(F)F | – | – | pH 7.4 | 2.6 |
| COc1ccccc1[C@@H](NS(=O)(=O)c1cc2ccc(O)nc2cc1Cl)C(=O)N(CC(=O)NCCn1cc(COCCOCCOCCOCC(=O)N[C@H](C(=O)N2C[C@H](O)C[C@H]2C(=O)NCc2ccc(-c3scnc3C)cc2)C(C)(C)C)nn1)Cc1cccs1 | fast-gradient HPLC | – | pH 7.4 | 2.3 |
| N#Cc1c(Cl)ccc2c1C1(CCN(C(=O)c3cnc4[nH]ncc4c3)CC1)C(=O)N2CC(=O)NCC(F)(F)F | – | – | pH 7.4 | 2.65 |
| COc1ccc2c3c1O[C@H]1[C@H](O)CC[C@H]4[C@@H](C2)N(C)CC[C@@]341 | – | octanol/buffer | 1 h, pH 7.4 | -0.14 |
| O=C(CN1C(=O)C2(CCN(C(=O)c3cnc4[nH]ncc4c3)CC2)c2c(Cl)cccc21)NCC(F)(F)F | – | – | pH 7.4 | 2.53 |
| Cn1ccc([C@H](CO)Nc2nc(N3C[C@@H]4C[C@H]3CO4)c3cc(-c4ccccc4)oc3n2)n1 | chromatographic | – | – | 3.4 ± 0.2 |

A few entries again:
| Compound | test | test system | setting | logD |
| --- | --- | --- | --- | --- |
| COc1ccc2c3c1O[C@H]1C(=O)CC[C@@]4(O)[C@@H](C2)N(CCc2ccccc2)CC[C@]314 | – | octanol/phosphate buffer | 1 h, pH 5.74, ionic strength 0.15 M | 1.24 |
| CC[C@H](C)[C@@H]1NC(=O)[C@H](CCSC)NC(=O)[C@H](Cc2c[nH]c3ccccc23)NC(=O)[C@H](CC(N)=O)NC(=O)[C@@H](NC(=O)CCOCCOCCOCCNC(=O)CN2CCN(CC(=O)O)CCN(CC(=O)O)CC2)CSSC[C@@H](C(=O)O)NC(=O)[C@H](CCC(=O)O)NC(=O)[C@H](CCCCN)NC(=O)[C@H](CC(N)=O)NC1=O [gallium-68 labelled] | shake-flask | 1-octanol/PBS | pH 7.4 | -1.36 ± 0.52 |
